# Results of several laboratories.
# Each line is one published result; not all experiments were run side by side. “And” joins repeats or separate records; there may be more than shown. Numbers after ± are the reported error.
# rep main protease: Replicase polyprotein 1ab, main protease (rep, Severe acute respiratory syndrome coronavirus 2, UniProt P0DTD1)
# rep papain-like protease: Replicase polyprotein 1ab, papain-like protease (rep, Severe acute respiratory syndrome coronavirus 2, UniProt P0DTD1)
SMILES,target,test,test system,setting,inhibition
O=C(NC1CCN(c2ncnc3[nH]cnc23)CC1)c1cccc(NS(=O)(=O)c2ccc(C(F)(F)F)cc2)c1,"Replicase polyprotein 1ab, nsp14 with nsp10 (rep, Severe acute respiratory syndrome coronavirus 2, UniProt P0DTD1)",exonuclease activity,SARS-CoV-2,0.04883 µM,2.3%
O=c1c2ccccc2[se]n1-c1cccc(F)c1,rep main protease,"enzyme activity, inhibitor",,0.3 µM,71.6%
O=C(CCl)N1N=C(c2cccs2)CC1c1cccs1 (stereo not shown),rep main protease,"enzyme activity, inhibitor, fluorescence",,"50 µM, pH 7.2",103%
C[C@](C(=O)NC1CCC(F)(F)CC1)(c1cncnc1)N(C(=O)[C@H](F)Cl)c1ccc(OC(F)(F)F)cc1,rep main protease,enzyme activity,,0.309 µM,96.7% and 106%
O=c1c2ccccc2[se]n1-c1ccnc(Cl)c1,rep main protease,"enzyme activity, inhibitor",,0.3 µM,74%
COc1cc(C(=O)N(CCC(=O)N2CCNCC2)Cc2cccc(Cl)c2)cc(OC)c1OC,"Replicase polyprotein 1ab, nsp3 macrodomain (rep, Severe acute respiratory syndrome coronavirus 2, UniProt P0DTD1)","ADP-ribosylhydrolase activity, inhibitor, gel-based de-MARylation",,"25 µM, SARS-CoV-2 Mac1",9%
O=c1c2ccccc2[se]n1-c1ccc(Oc2ccccc2)cc1,rep main protease,"enzyme activity, inhibitor",,0.3 µM,50.1%
CC(C)[C@H](NC(=O)c1ccccc1[Se][Se]c1ccccc1C(=O)N[C@H](C(=O)O)C(C)C)C(=O)O,rep main protease,"enzyme activity, inhibitor",,40 µM,102% and 105%
O=c1c2ccccc2sn1-c1ccccc1,rep main protease,"enzyme activity, inhibitor",,1 µM,96.6%
Nn1cnn2c(SCC(=O)Nc3nnc(SCC(=O)Nc4ccc(S(N)(=O)=O)cc4)s3)nnc12,rep main protease,"enzyme activity, inhibitor",,100 µg/mL,12%
CC1C(NC(=O)c2ccccc2[Se][Se]c2ccccc2C(=O)NC2CC3CC(C2C)C3(C)C)CC2CC1C2(C)C (stereo not shown),rep main protease,"enzyme activity, inhibitor",,40 µM,94% and 92.2%
COc1ccc2[nH]cc(CCN/C(=N\C(=O)CSc3nnc(N)s3)Nc3nc(C)cc(C)n3)c2c1,rep main protease,"enzyme activity, inhibitor",,100 µg/mL,10.5%
CCOC(=O)Cn1[se]c2ccccc2c1=O,rep main protease,"enzyme activity, inhibitor",,"40 µM, mean of repeats",104%
CC(=O)Nc1ccc(-c2cnc(N3C(=O)CSC3c3cc4ccccc4nc3Cl)s2)cc1 (stereo not shown),rep papain-like protease,"enzyme activity, inhibitor",,100 µM,97.5%
O=C(O)c1ccccc1[Se][Se]c1ccccc1C(=O)O,rep main protease,"enzyme activity, inhibitor",,40 µM,23.5%
O=C(NC1CCC(F)(F)CC1)C(c1cncnc1)N(C(=O)C(F)Cl)c1ccc(-c2cncs2)cc1 (stereo not shown),rep main protease,enzyme activity,,0.309 µM,100% and 96.9%
COc1cc(Oc2c(O)cc(C)cc2OC)c(C(=O)O)c(C)c1O,rep main protease,"enzyme activity, FRET",,10 µM,71.1 ± 1.7%
COc1cccc2c1C(=O)C=CC2=O,rep main protease,"enzyme activity, inhibitor",,1 µM,90.8%
Cc1nc(-c2cccnc2)sc1C(=O)Nc1ccccc1-c1cn2c(CN3CCOCC3)csc2n1,rep main protease,"enzyme activity, inhibitor",,50 µM,19.4%
O=C(/C=C/c1ccc(Cl)cc1)OCC(=O)c1ccc(Br)cc1,rep main protease,"enzyme activity, inhibitor",,100 µM,100%
C[C@H]1CC[C@@H]2[C@H]([C@@H]1n1[se]c3ccccc3c1=O)C2(C)C,rep main protease,"enzyme activity, inhibitor",,"40 µM, mean of repeats",102%
C=C1CC[C@@H]2[C@](C)(COC(C)=O)[C@H](OC(C)=O)CC[C@@]2(C)[C@@H]1C[C@H](SC(=S)N1CCc2ccccc2C1c1ccccc1)C1=CCOC1=O (stereo partly shown),rep main protease,"enzyme activity, inhibitor, fluorescence",,10 µM,> 50%
CC1(C)C2CCC(Cn3[se]c4ccccc4c3=O)C1C2 (stereo not shown),rep main protease,"enzyme activity, inhibitor",,40 µM,103%
O=C(NC1CCC(F)(F)CC1)C(c1cncnc1)N(C(=O)C(F)Cl)c1ccc(OC(F)(F)F)cc1 (stereo not shown),rep main protease,enzyme activity,,0.0013 µM,5.73% and -4.2% and 4.19%
COc1ccc(-c2cc(=O)c3c(O)cc(O)cc3o2)cc1Oc1ccc(-c2cc(=O)c3c(O)cc(O)cc3o2)cc1,rep papain-like protease,"enzyme activity, inhibitor",,5 µM,≥ 50%
C[C@](C(=O)NC1CCOCC1)(c1cncnc1)N(C(=O)[C@H](F)Cl)c1ccc(OC(F)(F)Cl)cc1,rep main protease,"enzyme activity, inhibitor",,10 µM,100%
CCOc1cc(/C=N/NC(=O)COCC(=O)N/N=C/c2ccc(O)c(OCC)c2)ccc1O,rep main protease,"enzyme activity, inhibitor",,100 µg/mL,0%
O=C(Oc1cncc(Cl)c1)c1cc2ccccc2o1,rep main protease,"enzyme activity, inhibitor, fluorescence",,"10 µM, pH 7.2",100%

# Some of these lines once more:
SMILES,target,test,test system,setting,inhibition
C[C@H]1CC[C@@H]2[C@H]([C@@H]1n1[se]c3ccccc3c1=O)C2(C)C,rep main protease,"enzyme activity, inhibitor",,"40 µM, mean of repeats",102%
C=C1CC[C@@H]2[C@](C)(COC(C)=O)[C@H](OC(C)=O)CC[C@@]2(C)[C@@H]1C[C@H](SC(=S)N1CCc2ccccc2C1c1ccccc1)C1=CCOC1=O (stereo partly shown),rep main protease,"enzyme activity, inhibitor, fluorescence",,10 µM,> 50%
CC1(C)C2CCC(Cn3[se]c4ccccc4c3=O)C1C2 (stereo not shown),rep main protease,"enzyme activity, inhibitor",,40 µM,103%
O=C(NC1CCC(F)(F)CC1)C(c1cncnc1)N(C(=O)C(F)Cl)c1ccc(OC(F)(F)F)cc1 (stereo not shown),rep main protease,enzyme activity,,0.0013 µM,5.73% and -4.2% and 4.19%
COc1ccc(-c2cc(=O)c3c(O)cc(O)cc3o2)cc1Oc1ccc(-c2cc(=O)c3c(O)cc(O)cc3o2)cc1,rep papain-like protease,"enzyme activity, inhibitor",,5 µM,≥ 50%
